Results pooled from the literature.
Protocols differ between the studies behind these lines. Numbers after ± are the reported error.

SMILES	tested on	assay	system	setting	how to read	quantity	value
N=C(N)c1ccc(-c2ccc(-c3cccs3)o2)cc1	Salmonella typhimurium	liquid broth OD	TA1535	12.5 µM, 15 h	baseline: growth	viability	104 ± 9.8%
CC(=O)N[C@H](C(=O)N[C@H](C(=O)N[C@@H](CCCNC(=N)N)C(=O)N1Cc2ccccc2C[C@H]1C(=O)N[C@@H](Cc1ccccc1)C(N)=O)C1CCCCC1)C(C)C	human PBMC	Bio-Plex multiplex, item: IL-10		250 µg/mL, 24 h		cytokine level	4.3 ± 2.9 pg/mL
NS(=O)(=O)Nc1ncnc(OCCOc2ncc(Br)cn2)c1-c1ccc(Br)cc1		M6 formation	female Sprague-Dawley rat, liver microsomes	50 mg/kg daily for 4 weeks		Km	3.5 ± 1.5 µM
C=CCC1=C[C@@]2(C[C@@H](O)C(C)(C)O2)C2=C(C[C@H]3C[C@@H]4[C@@H](C[C@@]3(C)O2)C(=C)CCCC4(C)C)C1=O	coxsackievirus B3	cytopathic effect	Vero, Nancy		baseline: CC50 over IC50	selectivity index	1.7
CC(C)CCC[C@@H](C)[C@H]1CCC([C@@H]2CC[C@H]3C[C@H](O)CC[C@]3(C)[C@H]2O)[C@]1(C)CC(=O)O (stereo partly drawn)	HEK293T	CellTiter-Blue		10 µM		viability	> 100%
N=C(N)c1ccc(-c2ccc(-c3ccco3)o2)cc1	Salmonella typhimurium	liquid broth OD	TA1535	12.5 µM, 15 h	baseline: growth	viability	79.1 ± 2.6%
Cc1cc(-c2ccc(NC(=O)[C@H](CCCCNC(=O)CCOCCOCCC(=O)N[C@H](Cc3ccccc3)C(=O)N[C@H]3CSSC[C@@H](C(=O)N[C@H](C(=O)O)[C@@H](C)O)NC(=O)[C@H]([C@@H](C)O)NC(=O)[C@H](CCCCN)NC(=O)[C@@H](Cc4c[nH]c5ccccc45)NC(=O)[C@H](Cc4ccc(O)cc4)NC3=O)NC(=O)CN3CCN(CC(=O)O)CCN(CC(=O)O)CCN(CC(=O)O)CC3)c(C)c2)ccc1N=Nc1ccc2c(S(=O)(=O)O)cc(S(=O)(=O)O)c(N)c2c1O [lutetium-177 labelled]			patients with metastatic neuroendocrine tumours, all metastatic lesions		baseline: compound over 177Lu-EB-TATE	effective half-life ratio	1.4 fold
Cn1c(=O)oc2ccc(-c3ccc(CC(C#N)NC(=O)C4CNCCCO4)c(F)c3)cc21 (stereo not drawn)		item: total protein decreased	human	60 mg single dose, fasted		subjects with TEAE	0%
O=C(O)CCC(NP(=O)(O)OCCC[C@@H](NC(=O)CC[C@H](NC(=O)CCCCCNC(=O)c1ccc([18F])cc1)C(=O)O)C(=O)O)C(=O)O (stereo partly drawn)	CWR22Rv1 tumour model		host not given, liver	4 h, tumour-bearing		tracer uptake	0.167 %ID/g
[64Cu+2].c1cnc(CNCc2ccc(CN3CCCN4CCNCCCN(CC4)CC3)cc2)nc1	CXCR4		NOD/SCID mouse, U87 and U87-stb-CXCR4 xenografts, pancreas	iv, 90 min, ex vivo		tissue uptake	1.84 ± 0.29 %ID/g
N#Cc1ccc(-c2ccc(-c3ccco3)o2)nc1	Salmonella typhimurium	liquid broth OD	TA1535	12.5 µM, 15 h	baseline: growth	viability	139 ± 11.2%
C[n+]1cn(C2OC(COP(=O)(O)OP(=O)([O-])C(Cl)(Cl)P(=O)(O)O)C(O)C2O)c2nc(N)nc(O)c21 (stereo not drawn)		cap-dependent translation, inhibitor	rabbit reticulocyte lysate	60 min, 30 °C, no preincubation		IC50	0.97 ± 0.13 µM
Cc1nn(-c2ccc(S(=O)(=O)N[C@H](CO)CC(C)C)cc2)c2nn3nnnc3nc12	PC-3	AO/EB staining		2 µM, 24 h		necrotic cells	42 ± 2.83%
C[n+]1cn([C@@H]2O[C@H](COP(=O)(O)OP(=O)([O-])C(F)(F)P(=O)(O)O)[C@@H](O)[C@H]2O)c2nc(N)nc(O)c21		cap-dependent translation, inhibitor	rabbit reticulocyte lysate	preincubated 60 min in lysate		IC50	2.43 ± 0.07 µM
[64Cu+2].c1ccc(CNCc2ccc(CN3CCCN4CCNCCCN(CC4)CC3)cc2)nc1	CXCR4		NOD/SCID mouse, U87 and U87-stb-CXCR4 xenografts, bladder	iv, 90 min, ex vivo, together with: AMD3465 25 mg/kg sc before tracer		tissue uptake	6.92 ± 2.62 %ID/g

Some of these lines once more:
SMILES	tested on	assay	system	setting	how to read	quantity	value
[64Cu+2].c1cnc(CNCc2ccc(CN3CCCN4CCNCCCN(CC4)CC3)cc2)nc1	CXCR4		NOD/SCID mouse, U87 and U87-stb-CXCR4 xenografts, pancreas	iv, 90 min, ex vivo		tissue uptake	1.84 ± 0.29 %ID/g
